# Measurements of several laboratories.
# Every numbered part comes from another study and shows a few of its results, in no order. Substitutions count along the parent as printed.

# Study 1
# Target: ABI1, truncated, D143A, DHFR fusion (Arabidopsis thaliana)
# Technique: DHFR PCA, deep sequencing
# Sample: yeast
# Notes: methotrexate growth selection, single substitutions
# Added: (+)-ABA 200 µM
# Relative to: wild-type fitted maximum
# Reading: higher = stronger binding
# Parent: PYL1, truncated, DHFR fusion (Arabidopsis thaliana); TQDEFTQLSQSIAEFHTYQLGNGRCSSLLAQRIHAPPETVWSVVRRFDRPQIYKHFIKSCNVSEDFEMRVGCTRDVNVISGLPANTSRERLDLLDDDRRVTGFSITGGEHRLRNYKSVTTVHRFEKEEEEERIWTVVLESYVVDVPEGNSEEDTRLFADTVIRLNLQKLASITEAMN; partner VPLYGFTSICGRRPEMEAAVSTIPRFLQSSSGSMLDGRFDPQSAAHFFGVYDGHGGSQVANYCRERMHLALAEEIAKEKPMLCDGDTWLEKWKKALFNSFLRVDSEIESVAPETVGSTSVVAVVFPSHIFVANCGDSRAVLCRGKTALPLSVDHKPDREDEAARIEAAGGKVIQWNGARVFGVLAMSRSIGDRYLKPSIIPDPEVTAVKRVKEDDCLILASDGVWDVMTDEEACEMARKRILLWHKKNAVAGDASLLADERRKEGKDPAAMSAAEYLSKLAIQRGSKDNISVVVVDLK
Variant,relative binding score [%]
Y141T,-5.57
Q2D,103
E131F,99.6
E4W,91.6
G21M,102
L156A,97.9
L156Q,94.9
T135C,103
H110C,34
V145S,57.2
V145D,-5.64
D48P,32.1
N85E,104
E151N,87.9
T135R,-5.23
T160A,76.4
V62G,51.2
T154I,69.6
Q2K,104
N85T,109
T73D,78

# Study 2
# Target: UBE2Q2 UBC core domain (UniProt Q8WVN8)
# Sequence of UniProt Q8WVN8 (whole entry, looked up): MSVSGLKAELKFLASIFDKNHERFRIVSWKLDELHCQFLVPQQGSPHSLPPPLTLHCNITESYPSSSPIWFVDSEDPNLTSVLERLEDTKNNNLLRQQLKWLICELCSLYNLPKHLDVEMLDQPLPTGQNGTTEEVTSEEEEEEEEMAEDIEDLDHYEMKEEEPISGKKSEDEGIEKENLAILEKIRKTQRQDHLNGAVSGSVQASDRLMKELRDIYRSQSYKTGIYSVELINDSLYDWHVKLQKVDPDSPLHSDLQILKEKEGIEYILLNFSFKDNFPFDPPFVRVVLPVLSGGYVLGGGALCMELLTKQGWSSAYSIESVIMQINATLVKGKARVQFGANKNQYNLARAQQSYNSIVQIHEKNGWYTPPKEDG
# Technique: yeast two-hybrid
# Sample: yeast
# Notes: mostly zero background
# Relative to: not given
# Reading: higher = stronger interaction
# B1: TRIM54 RING domain (UniProt Q9BYV2); chain SMDNLEKQLICPICLEMFSKPVVILPCQHNLCRKCANDVFQASNPLWQSRGSTTVSSGGRFRCPSCRHEVVLDRHGV
# B2: ANAPC11 RING domain (UniProt Q9NYG5); chain GICRMAFNGCCPDCKVPGDDCPLVWGQCSHCFHMHCILKWLHAQQVQQHCPMCRQEWKFKE
# B3: MYCBP2 RING domain (UniProt O75592); chain TSLKQDADDMCMICFTEALSAAPAIQLDCSHIFHLQCCRRVLENRWLGPRITFGFISCPICKNKINHIVLKD
# B4: RNF166 RING domain (UniProt Q96A37); chain GDSGLEAQYTCPICLEVYHRPVAIGSCGHTFCGECLQPCLQVPSPLCPLCRLPFDPKKVDK
# B5: RNF187 RING domain (UniProt Q5TA31); chain ALPAGPAEAACALCQRAPREPVRADCGHRFCRACVVRFWAEEDGPFPCPECADDCWQRAVEP
# B6: RNF2 RING domain (UniProt Q99496); chain SPRSLHSELMCPICLDMLKNTMTTKECLHRFCADCIITALRSGNKECPTCRKKLVSKRSLR
# B7: RNF122 RING domain (UniProt Q9H9V4); chain AKKLQLYGQTCAVCLEDFKGKDELGVLPCQHAFHRKCLVKWLEVRCVCPMCNKPIASPSEAT
# B8: DEF8 RING domain (UniProt Q6ZN54); chain AGRLGCSLTEIHTLFAKHIKLDCERCQAKGFVCELCREGDVLFPFDSHTSVCADCSAVFHRDCYYDNSTTCPKCARLSLRK
Molecule,lacZ reporter activity
B1 (TRIM54 RING domain),0
LGTKLEAKYLCSACRNVLRRPFQAQCGHRYCSFCLASILSSGPQNCAACVHEGIYEEGIS (TRAF2 RING domain (UniProt Q12933)),0
LDAASGHPLVCPLCHGQYERPCLLDCFHDFCTGCLRGRATDGRLSCPLCQHQTLVKGPSG (Rnf207 RING domain (UniProt Q3V3A7)),0
B2 (ANAPC11 RING domain),0
B3 (MYCBP2 RING domain),0
B4 (RNF166 RING domain),0
B5 (RNF187 RING domain),0
KPDKMEETLTCIICQDLLHDCVSLQPCMHTFCAACYSGWMERSSLCPTCRCPVERICKNH (CHFR RING domain (UniProt Q96EP1)),0
B6 (RNF2 RING domain),0
B7 (RNF122 RING domain),0
B8 (DEF8 RING domain),0
PEELAVNNDDCAICWDSMQAARKLPCGHLFHNSCLRSWLEQDTSCPTCRMSLNIADNNR (AMFR RING domain (UniProt Q9UKV5)),0
RYRQMEERITCPICIDSHIRLVFQCGHGACAPCGSALSACPICRQPIRDRIQIF (MIB2 RING domain (UniProt Q96AX9)),0
YPEEVDDDLICHICLQALLDPLDTPCGHTYCTLCLTNFLVEKDFCPMDRKPLVLQHCKK (LNX1 RING domain (UniProt Q8TBB1)),0

# Study 3
# Target: CCNA2, cyclin fold, Cln2 fusion (human)
# Technique: yeast growth competition, sequencing
# Sample: yeast
# Notes: strong parent motif
# Relative to: not given
# Reading: higher = stronger binding
# Parent: RB1 docking peptide (human); PKPLKKLRFDIEG
Variant,normalised enrichment score
PKPLKKLKFDIEG [R8K],0.984
HKPLKKLRFDIEG [P1H],1.31
PKPLKKLRFDQEG [I11Q],0.338
PLPLKKLRFDIEG [K2L],1.51
PKPLKKLRFDIEC [G13C],3.09
PKPLKKLRFDNEG [I11N],1.68
PKPLKKLRVDIEG [F9V],0.535
PKPLKKLRFDIEE [G13E],1.77
PKPLDKLRFDIEG [K5D],-0.211
PKPLKKLVFDIEG [R8V],1.65
PKALKKLRFDIEG [P3A],3.5
PKPGKKLRFDIEG [L4G],1.55
PKPLKKLCFDIEG [R8C],0.923
PKPLKKLRFDPEG [I11P],1.63
MKPLKKLRFDIEG [P1M],0.445
PTPLKKLRFDIEG [K2T],0.128
PKKLKKLRFDIEG [P3K],0.427
PKPLKKLRFDIVG [E12V],1.13
TKPLKKLRFDIEG [P1T],1.61
PKPLKELRFDIEG [K6E],-0.0546
PKPLKKLRFWIEG [D10W],2.04
PKQLKKLRFDIEG [P3Q],0.449
PKPLKKLRFEIEG [D10E],0.255
PKPLKKLRDDIEG [F9D],0.433
PIPLKKLRFDIEG [K2I],2.28

# Study 4
# Target: Ras GTPase-activating protein-binding protein 1, full length (G3BP1, Homo sapiens, UniProt Q13283)
# Sequence of UniProt Q13283 (whole entry, looked up): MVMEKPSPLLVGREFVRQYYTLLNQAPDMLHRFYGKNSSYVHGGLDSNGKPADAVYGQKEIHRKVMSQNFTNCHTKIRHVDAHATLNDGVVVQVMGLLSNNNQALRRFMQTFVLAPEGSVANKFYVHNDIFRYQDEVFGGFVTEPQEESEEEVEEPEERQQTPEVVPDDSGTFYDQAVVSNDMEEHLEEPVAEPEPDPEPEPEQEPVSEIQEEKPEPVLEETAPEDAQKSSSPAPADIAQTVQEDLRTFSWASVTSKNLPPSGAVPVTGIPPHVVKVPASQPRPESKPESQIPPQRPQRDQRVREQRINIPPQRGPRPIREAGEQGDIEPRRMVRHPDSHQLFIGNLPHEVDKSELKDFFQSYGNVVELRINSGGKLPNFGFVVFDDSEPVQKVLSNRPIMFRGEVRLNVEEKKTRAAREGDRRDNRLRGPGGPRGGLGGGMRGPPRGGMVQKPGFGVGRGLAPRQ
# Technique: RNA Bind-n-Seq
# Form: RNA
# Sample: in vitro
# Tested at: 200 nM
# Notes: whole 134-nt RNA, ends assumed
# Added: 150 mM LiCl
# Relative to: input library
# Reading: higher = stronger binding
# All molecules: 7-deaza-guanosine replaces G
# Shared flanks, not repeated: GGGAGUUCUACAGUCCGACGAUC … UGGAAUUCUCGGGUGUCAAGG
Oligonucleotide,log2 enrichment
UUCCUCAAGUCCUGUGCUACACAUCGUAUGUACCGAAUCGGUGGAGGUGGAAAGUAUUAUGUUACGCCGUUCGGAUCUGCACUUCCAGCA,-0.848
UCAAGUCCUGUGCUACACAUCGUAUGUACCGAAUCGGGGAAGGGAAGGGGAAGGAAAGUAUUAUGUUACGCCGUUCGGAUCUGCACUUCC,-0.638
CCUCAAGUCCUGUGCUACACAUCGUAUGUACCGAAUCGGGAGGGGAGGGAGGAAAGUAUUAUGUUACGCCGUUCGGAUCUGCACUUCCAG,0.355
CCUCAAGUCCUGUGCUACACAUCGUAUGUACCGAAUCGGGAAGGAAGGAAGGAAAGUAUUAUGUUACGCCGUUCGGAUCUGCACUUCCAG,-0.329
CCUCAAGUCCUGUGCUACACAUCGUAUGUACCGAAUCGGGGUGGGGUGGGUGGAAAGUAUUAUGUUACGCCGUUCGGAUCUGCACUUCCA,-0.269
UCAAGUCCUGUGCUACACAUCGUAUGUACCGAAUCGGUUUGGGGUUUGGUUUGGAAAGUAUUAUGUUACGCCGUUCGGAUCUGCACUUCC,-0.167
AGUCCUGUGCUACACAUCGUAUGUACCGAAUCGGGGAAAAGGAAAAGGGGAAAAGGGAAAGUAUUAUGUUACGCCGUUCGGAUCUGCACU,-0.591
UAAGUUUAGAGGAGGAUCUGAUGGAUAUGGCAGUGGACGUGGAUUUGGGGAUGGCUAUAAUGGGUAUGGAGGAGGACCUGGAGGUGGCAA,-0.29
UGGGAGGUGGAUUUUGUUUAUUUUUUUAGCUCAUUUCCAGGGGUGGGAAUUUUUUUUUAAUAUGUGUCAUGAAUAAAGAUGUUUUUGAAA,-0.609
UUCCUUCCACGACCCCUGAAGAGCAGCGGUGGGUCUGAGCAUCCUAUCUCCAGGAAGCAGGCCAGCAGGCAAGCCAGCUGCCACCUCGUC,0.609
UCCAGCCACUCACCGGCGAUCCAGGUCCAGAACCCCCCUGAUAAGCCGACGUAGGUCCAGAUCUCGAACUUCACCAGUCAGCCGGAGACG,0.14

# Study 5
# Target: RNA binding protein fox-1 homolog 2, RRM domain, GST-SBP tag (RBFOX2, Homo sapiens, UniProt O43251-10, residues 100-194)
# Technique: RNA Bind-n-Seq
# Form: RNA
# Sample: in vitro
# Tested at: 365 nM
# Notes: natural RNA segment, single round, ends assumed
# Relative to: no-protein control
# Reading: higher = stronger binding
# Shared flanks, not repeated: GGGAGUUCUACAGUCCGACGAUC … UGGAAUUCUCGGGUGCCAA
# Construct (chain): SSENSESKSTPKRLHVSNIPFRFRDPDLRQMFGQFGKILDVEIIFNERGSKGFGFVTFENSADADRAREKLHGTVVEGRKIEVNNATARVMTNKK
Oligonucleotide,RBNS enrichment (R)
UCUGUCCCUCCCACCUUGCCUUAUCCUUCAUUGGUUUCUUCACACACUCAAUAAAGAAGCAUGCUUGAGAUCUUAUUGUUCCAAGAUCAGUUUAGCCAAGACAUAAACCG,6.45
GCCACUUGAACCUUCAAUAAAGGCUGUUGCCUAAACAUGGCGUACUUCAUCUGUUCCCGCCUCUGCCAUCUGCUACGGUGUCGUCAGUUGUAUGGCAUUAAUUUCCUGCC,0.229
ACCCAGUCAAAGCUCUGCCUUUCAGCCCACGUCAUACGUAGUGUCCAUCUUGUGAAGCCCUGUUGUGCCCCACAGUGUAGCCAGGCCCCCUGCAGCUAGUCAUAGUGAAG,0.38
CCUUUUUCCUACCUCUCUCUGUUCGGUUUAGAAACUGAUCAUAAGUCAUAUGUUGUUUGGCAUUCUGCCUAACCCAGUCUCCCUUCCCAGAGUCAUGGACCUCUCUGUUG,0.909
UGAAGAUGAUGACGAGGAAUCGGAAGCCCAGGGGCCCAAUGAAGUUGCUCGCAGCUGGGGUGUGGGGCCAAGUGGCAGCCAGGGCCAAGACAAGCAGCAUCUGUCCCCCC,0.939
ACGGGAAAAUUUUUGCUUGCUUGUGAAGCACCUGUCAGAGGACCCGCCUUCGAGCCUGCAGGAACUAGAACAAGACUAUGGGGAAUCCUUUCUAGUUGCCAUGGAAAAGC,10.1
UCACACUUUGCUUGUAUUUUAAAAGGAGGAUAUAUUUGCACUUAUGUAUACUUUUACAGUUUGCCAAAAUAUUUUGUUGUAAAAUUUUUUUUCAAUAAAAUGUAUAUAAC,26.1
CCGAGAUUGCGCCAUUGCACUCCAGCCUGGGCAAAAAGAGUGAGACUCUGUCUCAAAAAAAAAACAAAACAAAAAAAACCUCUUUGCUGGUAUAUUUGAAGAGCUUGGGA,0.779
ACUGCACGGGCCCUGCUCCUGCAACAUGGAACUGUCGCGUAGCACCUGUACAAGAGACCCGGCCACUCCACUCCCUCCUGUGACCUGGACCUCUCCCUGACUUCCUAACA,0.471
UCUGCUGGAUUUGGGAGUUCCGCAUCUUUUGUGGAGGGCAGAGUAUGGACAUCUUACACCCGGUGGUCAAGUGUGUAAUAAACUUGAGCAUUCGAAUGGGAGAAAAAGCA,11.2
AUAGAUCUUCUGUGUCGUUGCAUGGAAGGGAAGACUUUGUAUAACACGCAUCAACACAUCCUCCCCAAAUCUCAAGCAAUAGACAGAAAUCUCAGUAGACUAAACUCCAG,0.575
AUUCUGGGAGUUGAGAGCUCUGCCAGGGUGAGAUGUUUCCUGAAGAGAGGUUCCCCACCCCUGUAACUCCUCACUGUACUGAUUUACUGGCGCAUGAAAUUCUAUUAAAA,1.96

# For quick reference, copied from above (study 2):
Molecule,lacZ reporter activity
B1 (TRIM54 RING domain),0
B3 (MYCBP2 RING domain),0
B4 (RNF166 RING domain),0
KPDKMEETLTCIICQDLLHDCVSLQPCMHTFCAACYSGWMERSSLCPTCRCPVERICKNH (CHFR RING domain (UniProt Q96EP1)),0
B6 (RNF2 RING domain),0
YPEEVDDDLICHICLQALLDPLDTPCGHTYCTLCLTNFLVEKDFCPMDRKPLVLQHCKK (LNX1 RING domain (UniProt Q8TBB1)),0
B8 (DEF8 RING domain),0
B5 (RNF187 RING domain),0
B7 (RNF122 RING domain),0
PEELAVNNDDCAICWDSMQAARKLPCGHLFHNSCLRSWLEQDTSCPTCRMSLNIADNNR (AMFR RING domain (UniProt Q9UKV5)),0
LDAASGHPLVCPLCHGQYERPCLLDCFHDFCTGCLRGRATDGRLSCPLCQHQTLVKGPSG (Rnf207 RING domain (UniProt Q3V3A7)),0
B2 (ANAPC11 RING domain),0
LGTKLEAKYLCSACRNVLRRPFQAQCGHRYCSFCLASILSSGPQNCAACVHEGIYEEGIS (TRAF2 RING domain (UniProt Q12933)),0
